Results collected from several papers.
A part holds a random share of what one study measured. Changes are numbered by the printed parent chain.
Sequence of UniProt O15294 (whole entry, looked up): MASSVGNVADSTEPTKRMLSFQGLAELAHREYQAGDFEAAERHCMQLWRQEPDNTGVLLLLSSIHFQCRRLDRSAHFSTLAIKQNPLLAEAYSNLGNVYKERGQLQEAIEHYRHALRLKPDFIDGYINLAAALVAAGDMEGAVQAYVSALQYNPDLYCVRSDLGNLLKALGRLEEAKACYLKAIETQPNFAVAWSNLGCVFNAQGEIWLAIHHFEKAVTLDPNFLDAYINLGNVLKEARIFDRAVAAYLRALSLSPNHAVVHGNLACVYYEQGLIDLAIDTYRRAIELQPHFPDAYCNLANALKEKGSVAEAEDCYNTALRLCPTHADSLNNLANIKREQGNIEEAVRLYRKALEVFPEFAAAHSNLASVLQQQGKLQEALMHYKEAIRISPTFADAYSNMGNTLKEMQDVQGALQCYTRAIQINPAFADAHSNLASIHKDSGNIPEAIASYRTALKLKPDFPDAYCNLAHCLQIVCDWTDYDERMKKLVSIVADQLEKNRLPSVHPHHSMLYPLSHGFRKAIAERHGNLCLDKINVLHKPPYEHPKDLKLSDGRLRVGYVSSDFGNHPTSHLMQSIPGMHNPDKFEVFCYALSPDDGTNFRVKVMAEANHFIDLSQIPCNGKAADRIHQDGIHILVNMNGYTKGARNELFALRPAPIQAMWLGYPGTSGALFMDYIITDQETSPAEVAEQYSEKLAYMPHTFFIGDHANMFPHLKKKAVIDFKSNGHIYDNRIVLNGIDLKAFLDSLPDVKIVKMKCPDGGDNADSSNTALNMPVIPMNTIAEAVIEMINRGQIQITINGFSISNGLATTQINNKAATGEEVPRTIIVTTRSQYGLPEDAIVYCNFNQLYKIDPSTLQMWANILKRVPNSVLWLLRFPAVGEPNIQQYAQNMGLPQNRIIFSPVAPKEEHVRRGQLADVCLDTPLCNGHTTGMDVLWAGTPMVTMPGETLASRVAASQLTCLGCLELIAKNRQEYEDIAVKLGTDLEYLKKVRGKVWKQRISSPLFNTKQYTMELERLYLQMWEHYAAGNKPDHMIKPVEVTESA
Sequence of UniProt Q9XFM0 (whole entry, looked up): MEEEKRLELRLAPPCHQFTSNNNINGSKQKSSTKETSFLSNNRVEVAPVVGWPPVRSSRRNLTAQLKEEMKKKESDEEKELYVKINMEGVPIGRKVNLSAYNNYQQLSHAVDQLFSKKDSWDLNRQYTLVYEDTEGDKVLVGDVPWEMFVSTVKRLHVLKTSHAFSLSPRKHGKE
Sequence of UniProt Q93YR9 (whole entry, looked up): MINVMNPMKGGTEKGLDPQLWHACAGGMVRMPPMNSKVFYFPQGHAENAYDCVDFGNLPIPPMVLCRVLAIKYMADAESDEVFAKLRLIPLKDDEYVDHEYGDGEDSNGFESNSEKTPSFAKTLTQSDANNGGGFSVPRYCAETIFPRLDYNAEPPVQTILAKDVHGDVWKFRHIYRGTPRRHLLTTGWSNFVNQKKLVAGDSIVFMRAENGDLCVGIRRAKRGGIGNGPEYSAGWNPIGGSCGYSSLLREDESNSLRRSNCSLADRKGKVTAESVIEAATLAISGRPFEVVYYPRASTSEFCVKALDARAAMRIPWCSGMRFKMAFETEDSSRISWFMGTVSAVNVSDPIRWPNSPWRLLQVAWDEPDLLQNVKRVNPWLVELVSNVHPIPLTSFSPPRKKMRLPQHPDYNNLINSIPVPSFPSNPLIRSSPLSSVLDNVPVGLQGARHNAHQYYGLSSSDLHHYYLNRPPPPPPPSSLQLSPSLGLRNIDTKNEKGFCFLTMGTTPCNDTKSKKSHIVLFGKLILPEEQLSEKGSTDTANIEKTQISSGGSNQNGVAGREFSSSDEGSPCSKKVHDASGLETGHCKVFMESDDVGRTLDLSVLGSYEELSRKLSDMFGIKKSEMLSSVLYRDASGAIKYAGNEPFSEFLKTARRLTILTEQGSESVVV
Sequence of UniProt Q38830 (whole entry, looked up): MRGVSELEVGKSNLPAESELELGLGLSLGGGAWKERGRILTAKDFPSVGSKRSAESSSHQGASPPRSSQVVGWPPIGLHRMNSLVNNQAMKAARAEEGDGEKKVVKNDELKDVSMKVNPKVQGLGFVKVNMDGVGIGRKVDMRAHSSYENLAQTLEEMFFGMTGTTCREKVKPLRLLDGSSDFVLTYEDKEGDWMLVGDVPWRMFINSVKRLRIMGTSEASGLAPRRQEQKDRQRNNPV
Sequence of UniProt Q38828 (whole entry, looked up): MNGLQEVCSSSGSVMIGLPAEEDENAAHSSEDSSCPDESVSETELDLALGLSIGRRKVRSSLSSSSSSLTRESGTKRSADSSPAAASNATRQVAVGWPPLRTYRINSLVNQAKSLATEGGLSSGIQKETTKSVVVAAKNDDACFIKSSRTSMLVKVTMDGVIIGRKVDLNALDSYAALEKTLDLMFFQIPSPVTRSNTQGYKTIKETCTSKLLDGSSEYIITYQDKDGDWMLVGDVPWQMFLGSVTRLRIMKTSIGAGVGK
Sequence of UniProt Q84WU6 (whole entry, looked up): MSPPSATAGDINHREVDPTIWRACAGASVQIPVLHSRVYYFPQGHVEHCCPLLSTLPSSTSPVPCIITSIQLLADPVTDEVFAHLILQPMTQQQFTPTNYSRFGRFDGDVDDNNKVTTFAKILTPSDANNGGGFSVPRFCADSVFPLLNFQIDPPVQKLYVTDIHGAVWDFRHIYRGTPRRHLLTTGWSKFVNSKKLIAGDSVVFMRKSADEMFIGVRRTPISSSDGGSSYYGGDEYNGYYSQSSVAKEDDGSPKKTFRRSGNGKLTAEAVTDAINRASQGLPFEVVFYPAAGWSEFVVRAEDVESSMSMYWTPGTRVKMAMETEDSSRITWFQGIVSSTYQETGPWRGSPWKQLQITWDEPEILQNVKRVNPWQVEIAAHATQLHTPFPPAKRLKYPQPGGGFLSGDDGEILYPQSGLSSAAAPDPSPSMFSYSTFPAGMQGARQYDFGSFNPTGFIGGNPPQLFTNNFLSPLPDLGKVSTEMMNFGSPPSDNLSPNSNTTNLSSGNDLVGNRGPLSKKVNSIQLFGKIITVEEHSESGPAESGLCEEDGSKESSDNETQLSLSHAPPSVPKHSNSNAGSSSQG
Sequence of UniProt Q9C8N7 (whole entry, looked up): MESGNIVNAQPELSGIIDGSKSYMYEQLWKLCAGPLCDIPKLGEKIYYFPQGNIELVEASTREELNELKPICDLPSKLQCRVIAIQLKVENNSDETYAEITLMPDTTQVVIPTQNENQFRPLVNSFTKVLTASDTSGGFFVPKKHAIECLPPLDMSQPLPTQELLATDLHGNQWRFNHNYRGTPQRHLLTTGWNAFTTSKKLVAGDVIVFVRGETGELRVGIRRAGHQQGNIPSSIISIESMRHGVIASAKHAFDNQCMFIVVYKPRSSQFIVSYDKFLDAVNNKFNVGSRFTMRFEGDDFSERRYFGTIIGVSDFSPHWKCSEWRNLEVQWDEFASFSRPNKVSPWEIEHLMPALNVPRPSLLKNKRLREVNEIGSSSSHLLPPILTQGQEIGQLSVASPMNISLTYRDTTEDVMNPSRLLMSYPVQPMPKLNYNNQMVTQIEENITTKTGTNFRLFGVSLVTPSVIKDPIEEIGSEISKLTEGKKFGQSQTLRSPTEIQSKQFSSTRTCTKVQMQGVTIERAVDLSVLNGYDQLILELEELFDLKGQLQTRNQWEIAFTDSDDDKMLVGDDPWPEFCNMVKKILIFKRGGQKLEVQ
Sequence of UniProt Q9ZPY6 (whole entry, looked up): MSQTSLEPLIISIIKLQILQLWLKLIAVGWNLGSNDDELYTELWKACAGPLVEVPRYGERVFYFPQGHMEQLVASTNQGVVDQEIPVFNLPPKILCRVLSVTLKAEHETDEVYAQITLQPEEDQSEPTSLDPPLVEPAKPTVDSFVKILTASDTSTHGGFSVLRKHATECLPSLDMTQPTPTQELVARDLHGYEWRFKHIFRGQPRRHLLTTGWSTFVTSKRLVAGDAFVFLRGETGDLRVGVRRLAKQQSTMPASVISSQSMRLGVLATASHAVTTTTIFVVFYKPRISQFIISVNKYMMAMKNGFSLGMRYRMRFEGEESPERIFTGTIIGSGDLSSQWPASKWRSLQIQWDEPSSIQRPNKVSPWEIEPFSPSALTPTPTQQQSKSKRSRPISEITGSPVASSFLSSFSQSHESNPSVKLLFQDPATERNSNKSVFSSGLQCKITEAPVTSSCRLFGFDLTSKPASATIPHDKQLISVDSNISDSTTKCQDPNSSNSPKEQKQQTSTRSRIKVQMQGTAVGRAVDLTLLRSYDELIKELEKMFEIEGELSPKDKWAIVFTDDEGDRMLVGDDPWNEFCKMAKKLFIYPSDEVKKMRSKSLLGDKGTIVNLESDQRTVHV

Block 1
Molecule: B1 (IAA2)
Technique: two-hybrid
Reference: out of 4 tests
Reading: higher = firmer interaction
Quantity: positive tests
B1: IAA2 (Arabidopsis thaliana, UniProt P49678); chain MAYEKVNELNLKDTELCLGLPGRTEKIKEEQEVSCVKSNNKRLFEETRDEEESTPPTKTQIVGWPPVRSSRKNNNSVSYVKVSMDGAPYLRKIDLKTYKNYPELLKALENMFKVMIGEYCEREGYKGSGFVPTYEDKDGDWMLVGDVPWDMFSSSCKRLRIMKGSDAPALDSSL
IAA12 (Arabidopsis thaliana, UniProt Q38830): 0
IAA10 (Arabidopsis thaliana, UniProt Q38828): 3
ARF11 500-622 (Arabidopsis thaliana, UniProt Q9ZPY6): 0
ARF17 (Arabidopsis thaliana, UniProt Q84WU6); weak activation fusion: 0
ARF16 570-670 (Arabidopsis thaliana, UniProt Q93YR9): 0
ARF22 498-598 (Arabidopsis thaliana, UniProt Q9C8N7): 0
IAA28 (Arabidopsis thaliana, UniProt Q9XFM0): 4
IAA14 (Arabidopsis thaliana, UniProt Q38832): 4

Block 2
Target: ATF5, bZIP domain (human)
Technique: DHFR protein complementation
Sample: yeast
Setting: single substitutions, most at no-binding floor
Reference: wild-type JUN-FOS pair
Reading: higher = stronger binding
Quantity: binding fitness
Starting sequence: JUN, bZIP domain (human); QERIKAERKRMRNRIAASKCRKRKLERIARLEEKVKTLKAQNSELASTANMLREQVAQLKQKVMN; partner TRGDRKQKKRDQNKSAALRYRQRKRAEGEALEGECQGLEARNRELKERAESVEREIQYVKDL
L31D: -1.47 natural log
E32A: -1.26 natural log
L45W: -1.38 natural log
T37C: -1.49 natural log
V35Q: -1.4 natural log
V56R: -1.51 natural log
L45R: -1.5 natural log
L38K: -1.48 natural log

Mixed results
Oc1ncnc2[nH]ncc12  GFP-positive cells (HEK-293T; pseudovirus infection, FDA-approved drug library counter-screen; VSV pseudotyped with VSV-G; 10 µM, 16 h; reference: vehicle-treated): 107%
DSGMHWMHRHMHGWE  enrichment fold change (UDP-N-acetylglucosamine--peptide N-acetylglucosaminyltransferase 110 kDa subunit (OGT, Homo sapiens, UniProt O15294); binding, phage display NGS; peptide; concentration not given, panning round 2; reference: input library): 9.09
